Measurements of several laboratories.
Each line is one published result; not all experiments were run side by side. Values joined by “and” are separate records of one study, mostly repeats; a detail may differ. ± gives the spread as reported.
TDP1: Tyrosyl-DNA phosphodiesterase 1 (TDP1, Homo sapiens, UniProt Q9NUW8)
UniProt Q9NUW8, sequence (whole entry, looked up): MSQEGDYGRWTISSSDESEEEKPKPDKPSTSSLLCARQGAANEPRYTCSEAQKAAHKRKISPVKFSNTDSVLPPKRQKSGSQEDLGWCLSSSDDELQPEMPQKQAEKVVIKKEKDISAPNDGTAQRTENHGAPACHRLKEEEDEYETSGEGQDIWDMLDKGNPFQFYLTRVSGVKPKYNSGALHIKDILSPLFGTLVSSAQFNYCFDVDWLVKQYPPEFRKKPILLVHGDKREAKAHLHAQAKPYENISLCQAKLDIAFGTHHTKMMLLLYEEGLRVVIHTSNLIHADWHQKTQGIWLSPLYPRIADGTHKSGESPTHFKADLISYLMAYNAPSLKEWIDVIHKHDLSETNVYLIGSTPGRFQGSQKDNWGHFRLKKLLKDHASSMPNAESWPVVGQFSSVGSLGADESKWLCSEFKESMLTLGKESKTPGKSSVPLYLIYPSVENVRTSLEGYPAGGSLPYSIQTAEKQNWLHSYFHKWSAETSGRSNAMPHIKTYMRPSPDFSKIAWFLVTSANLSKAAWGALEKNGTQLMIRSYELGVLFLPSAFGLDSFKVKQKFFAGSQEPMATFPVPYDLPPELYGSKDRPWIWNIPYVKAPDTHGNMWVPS

Compound | target or system | assay | test system | setting | scale | measurement | result
Cc1nn2c(C(F)(F)F)ccnc2c1C=NOCc1ccc(-c2nc3cc(-c4ccccc4)ccn3c2Nc2ccc(C(=O)O)cc2)cc1 (mixture of isomers) | TDP1 | enzyme activity, inhibitor | – | 100 µM, unpurified compound | – | inhibition | 62.6%
O=C1C2CC3CC1CC(C(=O)N1CCN(c4ccc([N+](=O)[O-])c5ncccc45)CC1)(C3)C2 | Salmonella typhimurium | Ames test | TA97a | 0.02 µg/well, with S9 | reference: vehicle | revertant fold increase | 0.9
CCN(CC)CC#CCNc1ccnc2cc(Cl)ccc12 | Salmonella typhimurium | mini-Ames test | TA100 | 62.5 µg/well, without S9 | – | revertants | 24 revertants/well and 22 revertants/well
Nc1nc2cc(C(=O)c3ccc(F)cc3)ccc2[nH]1 | Escherichia coli | Ames preincubation test | WP2 uvrA | 39.0 µg/plate, without S9 | – | revertants | 41 revertants/plate
CC(C(=O)O)c1nn(C)c2nc(N)[nH]c(=O)c2c1=O (centres unmarked) | Escherichia coli | LC-MS/MS | BW25113 | 100 µM, 10 min, 37 °C | – | intracellular accumulation | 4.32 ± 0.6 µM
CC(C)OCCOCc1ccc(OCC(O)CN(N=O)C(C)C)cc1 (centres unmarked) | Salmonella typhimurium | Ames test | TA1535 | 1580 µg/plate, 30 % hamster S9 | reference: solvent control | revertant fold increase | 16.1 fold
O=C1NC2(CC2)COc2ncc(F)cc2[C@H]2COCCN2c2ccn3ncc1c3n2 | Salmonella typhimurium | Ames test | TA97a | 5000 µg/plate, 48 h, together with: rat liver S9 | – | revertant colonies | 92 ± 21 revertants/plate
COC(=O)CC(C)c1n[nH]c2nc(N)[nH]c(=O)c2c1=O (centres unmarked) | Escherichia coli | LC-MS/MS | BW25113 | 100 µM, 10 min, 37 °C | – | intracellular accumulation | 7.35 ± 1.4 µM
COC(=O)Nc1nc2cc(C(O)c3ccc(F)cc3)ccc2[nH]1 (centres unmarked) | Escherichia coli | Ames preincubation test | WP2 uvrA | 218.8 µg/plate, without S9 | – | revertants | 41.3 revertants/plate
Cn1nc(CO)c(=O)c2c(=O)[nH]c(N)nc21 | Escherichia coli | LC-MS/MS | BW25113 | 100 µM, 10 min, 37 °C | – | intracellular accumulation | 11.4 µM
Cc1nc(N2CCCCC2)nc(O)c1C=NOCc1ccc2nc(-c3ccccc3)c(Nc3ccc(C(=O)O)cc3)n2c1 | TDP1 | enzyme activity, inhibitor | – | 100 µM, unpurified compound | – | inhibition | 34.2%

Some of these lines once more:
Compound | target or system | assay | test system | setting | scale | measurement | result
O=C1C2CC3CC1CC(C(=O)N1CCN(c4ccc([N+](=O)[O-])c5ncccc45)CC1)(C3)C2 | Salmonella typhimurium | Ames test | TA97a | 0.02 µg/well, with S9 | reference: vehicle | revertant fold increase | 0.9
